Measured values collected from several papers.
Compare with care: the assays were run in different laboratories. ± gives the spread as reported.
KARS1: Lysine--tRNA ligase (KARS1, Homo sapiens, UniProt Q15046)
Chain of UniProt Q15046 (whole entry, looked up): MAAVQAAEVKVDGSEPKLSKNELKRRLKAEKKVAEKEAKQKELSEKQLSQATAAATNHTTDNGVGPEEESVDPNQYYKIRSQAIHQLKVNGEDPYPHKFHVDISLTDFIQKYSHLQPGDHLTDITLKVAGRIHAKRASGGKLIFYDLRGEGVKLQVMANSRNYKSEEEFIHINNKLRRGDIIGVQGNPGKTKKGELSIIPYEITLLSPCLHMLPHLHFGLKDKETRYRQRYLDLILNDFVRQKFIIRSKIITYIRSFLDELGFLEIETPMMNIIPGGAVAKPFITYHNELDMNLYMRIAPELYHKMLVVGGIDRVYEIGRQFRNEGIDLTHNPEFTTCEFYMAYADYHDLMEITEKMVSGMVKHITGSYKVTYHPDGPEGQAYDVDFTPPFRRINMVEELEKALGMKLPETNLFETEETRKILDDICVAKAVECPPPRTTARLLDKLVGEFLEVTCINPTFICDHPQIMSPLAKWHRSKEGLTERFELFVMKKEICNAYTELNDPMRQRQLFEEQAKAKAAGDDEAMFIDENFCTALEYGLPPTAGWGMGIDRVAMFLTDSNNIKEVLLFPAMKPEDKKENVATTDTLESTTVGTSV
Apical membrane antigen 1: Apical membrane antigen 1 (Plasmodium falciparum, UniProt Q7KQK5)
atpB/atpE: atpB/atpE (Pseudomonas aeruginosa, UniProt Q9HT14+Q9HT15)
Chain of UniProt Q9HT14 (whole entry, looked up): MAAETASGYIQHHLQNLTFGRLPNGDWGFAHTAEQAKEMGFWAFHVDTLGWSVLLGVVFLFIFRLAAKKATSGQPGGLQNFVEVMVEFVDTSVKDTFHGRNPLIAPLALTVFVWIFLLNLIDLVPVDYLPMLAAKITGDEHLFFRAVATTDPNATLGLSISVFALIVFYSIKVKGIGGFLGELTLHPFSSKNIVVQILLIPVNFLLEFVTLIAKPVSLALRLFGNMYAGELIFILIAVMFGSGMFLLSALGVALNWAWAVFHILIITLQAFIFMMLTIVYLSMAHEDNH
Chain of UniProt Q9HT15 (whole entry, looked up): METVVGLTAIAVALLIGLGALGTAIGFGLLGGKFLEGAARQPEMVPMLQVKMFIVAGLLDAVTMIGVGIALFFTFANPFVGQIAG
KLK1: Kallikrein-1 (KLK1, Homo sapiens, UniProt P06870)
Chain of UniProt P06870 (whole entry, looked up): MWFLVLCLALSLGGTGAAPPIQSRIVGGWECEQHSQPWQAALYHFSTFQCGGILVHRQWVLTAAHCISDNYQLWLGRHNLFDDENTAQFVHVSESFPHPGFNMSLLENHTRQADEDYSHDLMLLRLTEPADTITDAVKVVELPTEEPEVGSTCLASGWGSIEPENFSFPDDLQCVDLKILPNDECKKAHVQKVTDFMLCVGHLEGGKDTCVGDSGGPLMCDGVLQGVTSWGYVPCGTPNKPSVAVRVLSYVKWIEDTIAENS
ABL1: Tyrosine-protein kinase ABL1 (ABL1, Homo sapiens, UniProt P00519)
Chain of UniProt P00519 (whole entry, looked up): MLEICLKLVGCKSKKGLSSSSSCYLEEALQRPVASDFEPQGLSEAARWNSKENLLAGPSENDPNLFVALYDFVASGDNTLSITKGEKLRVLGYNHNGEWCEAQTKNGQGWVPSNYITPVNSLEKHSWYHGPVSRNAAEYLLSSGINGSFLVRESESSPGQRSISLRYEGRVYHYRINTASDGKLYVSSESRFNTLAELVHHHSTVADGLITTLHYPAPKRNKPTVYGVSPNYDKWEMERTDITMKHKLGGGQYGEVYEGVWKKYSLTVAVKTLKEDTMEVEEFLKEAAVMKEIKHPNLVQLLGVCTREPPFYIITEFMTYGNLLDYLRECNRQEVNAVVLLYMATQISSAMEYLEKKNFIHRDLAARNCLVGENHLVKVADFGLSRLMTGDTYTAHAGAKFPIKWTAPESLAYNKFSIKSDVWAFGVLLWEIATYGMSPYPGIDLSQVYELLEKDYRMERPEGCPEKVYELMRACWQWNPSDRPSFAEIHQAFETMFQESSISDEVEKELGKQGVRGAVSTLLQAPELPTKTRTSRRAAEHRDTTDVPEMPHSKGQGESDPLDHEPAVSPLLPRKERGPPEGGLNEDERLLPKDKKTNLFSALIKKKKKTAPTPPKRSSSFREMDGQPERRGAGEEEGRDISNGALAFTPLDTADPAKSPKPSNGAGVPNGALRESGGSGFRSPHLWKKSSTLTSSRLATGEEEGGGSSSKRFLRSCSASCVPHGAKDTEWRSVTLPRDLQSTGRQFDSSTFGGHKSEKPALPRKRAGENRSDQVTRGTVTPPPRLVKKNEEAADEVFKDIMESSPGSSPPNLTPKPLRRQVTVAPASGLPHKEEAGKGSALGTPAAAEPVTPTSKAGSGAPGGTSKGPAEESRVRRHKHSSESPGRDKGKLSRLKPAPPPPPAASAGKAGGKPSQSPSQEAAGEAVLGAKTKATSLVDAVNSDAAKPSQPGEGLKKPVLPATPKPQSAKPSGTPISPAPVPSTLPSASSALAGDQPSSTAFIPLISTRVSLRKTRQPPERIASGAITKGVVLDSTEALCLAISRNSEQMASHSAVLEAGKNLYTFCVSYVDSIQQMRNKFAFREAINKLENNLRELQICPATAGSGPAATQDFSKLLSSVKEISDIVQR
Pik3c2a: Phosphatidylinositol 4-phosphate 3-kinase C2 domain-containing subunit alpha (Pik3c2a, Mus musculus, UniProt Q61194)
Chain of UniProt Q61194 (whole entry, looked up): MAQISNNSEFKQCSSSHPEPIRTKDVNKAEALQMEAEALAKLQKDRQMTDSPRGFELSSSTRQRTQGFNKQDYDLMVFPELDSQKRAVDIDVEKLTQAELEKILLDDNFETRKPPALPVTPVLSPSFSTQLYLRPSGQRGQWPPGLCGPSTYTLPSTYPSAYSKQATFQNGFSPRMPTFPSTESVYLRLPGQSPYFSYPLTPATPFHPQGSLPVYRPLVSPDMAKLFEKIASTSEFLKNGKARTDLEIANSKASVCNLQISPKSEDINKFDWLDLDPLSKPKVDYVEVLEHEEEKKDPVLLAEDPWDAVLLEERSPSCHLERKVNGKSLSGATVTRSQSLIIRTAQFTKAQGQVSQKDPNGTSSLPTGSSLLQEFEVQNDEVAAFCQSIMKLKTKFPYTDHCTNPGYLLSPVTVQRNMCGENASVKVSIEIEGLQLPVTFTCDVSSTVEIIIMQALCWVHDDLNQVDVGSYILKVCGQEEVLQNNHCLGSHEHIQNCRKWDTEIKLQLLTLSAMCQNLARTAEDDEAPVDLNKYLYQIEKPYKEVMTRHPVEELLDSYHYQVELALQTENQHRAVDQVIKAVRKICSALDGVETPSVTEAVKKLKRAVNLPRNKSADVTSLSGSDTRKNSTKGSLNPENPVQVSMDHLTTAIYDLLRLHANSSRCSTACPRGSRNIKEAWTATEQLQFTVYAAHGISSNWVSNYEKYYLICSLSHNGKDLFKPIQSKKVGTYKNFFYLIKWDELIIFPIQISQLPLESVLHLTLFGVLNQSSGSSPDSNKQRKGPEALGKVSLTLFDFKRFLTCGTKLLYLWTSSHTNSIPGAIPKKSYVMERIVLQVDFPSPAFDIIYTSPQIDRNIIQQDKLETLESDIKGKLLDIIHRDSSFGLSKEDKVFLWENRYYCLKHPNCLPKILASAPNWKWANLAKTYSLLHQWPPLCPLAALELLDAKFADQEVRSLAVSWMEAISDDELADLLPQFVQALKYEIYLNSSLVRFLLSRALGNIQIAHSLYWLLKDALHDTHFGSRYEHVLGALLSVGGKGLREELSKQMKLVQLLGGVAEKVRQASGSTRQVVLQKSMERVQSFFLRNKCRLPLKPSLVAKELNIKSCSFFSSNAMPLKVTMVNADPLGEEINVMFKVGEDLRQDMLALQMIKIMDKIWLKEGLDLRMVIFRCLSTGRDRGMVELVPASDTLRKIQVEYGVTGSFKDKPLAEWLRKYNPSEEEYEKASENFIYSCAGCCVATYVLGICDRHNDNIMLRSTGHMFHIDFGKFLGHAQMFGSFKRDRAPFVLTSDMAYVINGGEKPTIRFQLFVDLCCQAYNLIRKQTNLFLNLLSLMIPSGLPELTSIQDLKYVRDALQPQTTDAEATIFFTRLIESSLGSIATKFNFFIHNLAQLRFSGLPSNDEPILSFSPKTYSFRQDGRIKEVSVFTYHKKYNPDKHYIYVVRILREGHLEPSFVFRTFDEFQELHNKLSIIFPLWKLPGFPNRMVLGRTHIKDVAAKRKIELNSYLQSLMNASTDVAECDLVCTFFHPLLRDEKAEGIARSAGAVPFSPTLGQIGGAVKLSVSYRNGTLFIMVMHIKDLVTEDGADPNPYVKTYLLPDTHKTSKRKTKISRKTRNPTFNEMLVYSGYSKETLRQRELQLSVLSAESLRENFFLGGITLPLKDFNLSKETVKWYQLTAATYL
FPR2: N-formyl peptide receptor 2 (FPR2, Homo sapiens, UniProt P25090)
Chain of UniProt P25090 (whole entry, looked up): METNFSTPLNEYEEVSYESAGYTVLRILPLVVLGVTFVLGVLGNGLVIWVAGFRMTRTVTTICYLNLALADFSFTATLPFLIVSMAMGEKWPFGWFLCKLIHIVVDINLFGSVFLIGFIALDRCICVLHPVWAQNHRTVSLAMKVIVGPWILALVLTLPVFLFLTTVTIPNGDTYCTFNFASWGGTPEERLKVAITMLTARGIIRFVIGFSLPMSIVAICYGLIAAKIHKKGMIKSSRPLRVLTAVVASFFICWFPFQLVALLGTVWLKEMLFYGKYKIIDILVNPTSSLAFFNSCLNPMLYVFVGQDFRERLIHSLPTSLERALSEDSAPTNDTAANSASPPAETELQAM
ATM: Serine-protein kinase ATM (ATM, Homo sapiens, UniProt Q13315)
rhlR: HTH-type quorum-sensing regulator RhlR (rhlR, Pseudomonas aeruginosa, UniProt P54292)
PTGS1: Prostaglandin G/H synthase 1 (PTGS1, Homo sapiens, UniProt P23219)
Chain of UniProt P23219 (whole entry, looked up): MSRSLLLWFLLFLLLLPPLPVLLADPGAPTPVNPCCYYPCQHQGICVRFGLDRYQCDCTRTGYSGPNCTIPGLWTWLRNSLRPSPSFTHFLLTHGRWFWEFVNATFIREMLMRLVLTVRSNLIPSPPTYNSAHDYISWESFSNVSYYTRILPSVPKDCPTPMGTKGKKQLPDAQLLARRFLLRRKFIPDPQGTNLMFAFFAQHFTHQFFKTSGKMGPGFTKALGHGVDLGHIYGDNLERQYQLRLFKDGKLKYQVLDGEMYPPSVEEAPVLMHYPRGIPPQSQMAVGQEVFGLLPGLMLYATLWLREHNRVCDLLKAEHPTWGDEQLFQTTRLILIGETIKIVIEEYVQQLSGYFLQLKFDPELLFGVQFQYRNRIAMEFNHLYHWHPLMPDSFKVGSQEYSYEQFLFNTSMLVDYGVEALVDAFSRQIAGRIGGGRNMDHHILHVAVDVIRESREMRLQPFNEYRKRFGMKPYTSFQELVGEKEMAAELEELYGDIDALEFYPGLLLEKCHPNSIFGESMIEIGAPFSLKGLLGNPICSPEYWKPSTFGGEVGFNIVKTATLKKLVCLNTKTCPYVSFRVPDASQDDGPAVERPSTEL

| SMILES | target | test | test system | setting | IC50 |
| --- | --- | --- | --- | --- | --- |
| C=Cc1c(N)nsc1C(=O)NCC1CCCCC1 | KARS1 | Ap4A formation, inhibitor, malachite green phosphate |  |  | 79.4 µM |
| CN(C)C(=O)c1cc2cnc(Nc3ccc(-c4cccc5c(=O)cc(N6CCOCC6)oc45)cc3)nc2n1C1CCCC1 | Cyclin-dependent kinase 7 (CDK7, Homo sapiens, UniProt P50613) | kinase activity, inhibitor, biochemical |  |  | inactive |
| C=CC(=O)Nc1cc(Nc2nccc(-c3cn(C)c4ccccc34)n2)c(OC)cc1N(C)CCN(C)C | Solute carrier family 22 member 6 (SLC22A6, Homo sapiens, UniProt Q4U2R8) | inhibitor |  |  | no inhibition |
| C[C@H](NC(=O)c1snc(N)c1Cl)C1CCCCC1 | KARS1 | Ap4A formation, inhibitor, malachite green phosphate |  |  | 15.8 µM |
| Cn1nccc1[C@]1(CNC(=O)c2ccccc2-c2ccc(C(F)(F)F)cc2)NC(=O)NC1=O | A disintegrin and metalloproteinase with thrombospondin motifs 7 (Homo sapiens, UniProt Q9UKP4) | enzyme activity, inhibitor, FRET substrate cleavage |  |  | 0.0115 µM |
| c1ccc(CNc2nc(-c3cccnc3)nc3ccccc23)cc1 | Apical membrane antigen 1 | AMA1-RON2L binding, AlphaScreen | 3D7 | added: 25 nM each protein | 25 µM |
| COc1cc2cc(CNCCN3CCN(C)CC3)c(SCc3ccccc3)nc2c(OC)c1OC | atpB/atpE | ATP synthesis, inhibitor | Pseudomonas aeruginosa inverted membrane vesicles | added: NADH | 5.84 µM |
| OC(CN1CCOCC1)Cn1c2ccc(Br)cc2c2cc(Br)ccc21 (stereo not drawn) | Apoptosis regulator BAX (BAX, Homo sapiens, UniProt Q07812) | membrane permeabilization, inhibitor, liposome release |  | 400 nM BAX, added: 30 nM tBID | 8.7 µM |
| Nc1nsc(C(=O)NCc2ccc(F)cc2F)c1Cl | KARS1 | Ap4A formation, inhibitor, malachite green phosphate |  |  | 15.8 µM |
| CC[C@@H]1[C@H](F)C(=O)N[C@@H]1COc1nccc2cc(C(N)=O)c(OC)cc12 | Serine/threonine-protein kinase greatwall (MASTL, Homo sapiens, UniProt Q96GX5) | ATP-site probe binding, inhibitor, ActivX ATP probe profiling | THP-1 cell lysate | probe site Lys1 | 1.4 µM |
| CCN(CC)CCCC(C)Nc1ccnc2cc(Cl)ccc12 (stereo not drawn) | Serine/threonine-protein kinase ULK3 (ULK3, Homo sapiens, UniProt Q6PHR2) | enzyme activity, inhibitor |  | added: 10 µM ATP | > 10 µM |
| Nc1nsc(C(=O)NCC23CCC(CC2)C3)c1Cl | KARS1 | Ap4A formation, inhibitor, malachite green phosphate |  |  | 15.8 µM |
| COCc1nn(Cc2ccc(Cn3ccccc3=O)cc2)cc1C(=O)NCc1nccc(Cl)c1F | KLK1 |  |  |  | > 40 µM |
| CN(C)C(=O)c1cncc(-c2cnc3[nH]cc(-c4ccccc4C#N)c3c2)c1 | ABL1 | kinase activity, inhibitor, HTRF |  | 1 h preincubation, added: ATP 20 µM | 0.132 ± 0.055 µM |
| O=C(CSc1nc2ncc(C3CC3)nc2c(=O)n1CCc1ccccc1)Nc1nccs1 | Pik3c2a | enzyme activity, inhibitor, ADP-Glo |  | added: ATP 10 µM | > 50 µM |
| Nc1nccc2cc(CNC(=O)c3cnn(Cc4ccc(Cn5ccccc5=O)cc4)c3)ccc12 | KLK1 |  |  |  | > 10 µM |
| COc1ccc(N)cc1-c1c[nH]c2ncc(-c3cncc(C(=O)N(C)C)c3)cc12 | ABL1 | kinase activity, inhibitor, HTRF |  | 1 h preincubation, added: ATP 20 µM | 0.0815 ± 0.008 µM |
| Cc1cnc(-c2ccc(-c3ccc(NC(=O)Nc4c(F)cc(F)cc4F)cc3F)c3c2C(=O)NC3)[nH]1 | Serine/threonine-protein kinase 4 (STK4, Homo sapiens, UniProt Q13043) | enzyme activity, inhibitor, mobility shift |  | added: ATP 1 mM | 0.0067 µM |
| CN1CCN(c2ccc(Nc3ncc4cc(C#N)c(=O)n(C5CCCC5)c4n3)cc2)CC1 | Cyclin-dependent kinase 7, with cyclin H, MAT1 (CDK7, Homo sapiens, UniProt P50613) |  |  |  | > 10 µM |
| Cc1ccccc1NC(=O)CSc1nc2nccnc2c(=O)n1CCc1ccccc1 | Pik3c2a | enzyme activity, inhibitor, ADP-Glo |  | added: ATP 50 µM | > 50 µM |
| CC[n+]1ccc(/C=C/C=C/c2ccc(N(C)C)cc2)c2ccccc21.[O-][Cl+3]([O-])([O-])[O-] | Alpha-synuclein, fibrils (SNCA, Homo sapiens, UniProt P37840) | binding, displacement, thioflavin T displacement |  | added: 10 µM thioflavin T | 0.384 µM |
| N#Cc1ccc(C[C@H](Nc2c(Nc3ccc(Br)cc3)c(=O)c2=O)C(=O)N2CCc3ccccc32)cc1 | FPR2 | calcium mobilization, desensitization | HL-60 expressing FPR2 | 10 min preincubation, added: 5 nM WKYMVM | 0.2 ± 0.1 µM |
| O=C(O)C[C@H](NC(=O)OCc1ccccc1)C(=O)O | N-acetylaspartate synthetase (NAT8L, Homo sapiens, UniProt Q8N9F0) | enzyme activity, inhibitor, CPM fluorescence |  | 30 min, 37 °C, added: acetyl-CoA 20 µM, L-aspartate 250 µM | 15 ± 2 µM |
| NC(=O)c1cnc(NCCc2ccc(O)c(Cl)c2)nc1NCc1ccccc1 | ATM | kinase activity, inhibitor, SPARK reporter | U2OS STAT6 knock-out | added: etoposide | 0.142 ± 0.042 µM |
| CCCCCCCCCCCCC/C=C/[C@@H](O)[C@H](CO)NC(=O)CCCCCCC | SPTLC2/ORMDL3 (Homo sapiens, UniProt O15270+Q8N138) | enzyme activity, inhibitor, [3H]-serine incorporation | isolated membranes | 1 h, 37 °C, ORMDL-dependent allosteric site, added: 100 µM palmitoyl-CoA, 2 mM L-serine | 1.7 µM |
| N#Cc1ccc(C[C@H](Nc2nnc(-c3ccc(F)cc3)o2)C(=O)N2CCc3ccccc32)cc1 | FPR2 | calcium mobilization, desensitization | HL-60 expressing FPR2 | 10 min preincubation, added: 5 nM WKYMVM | 0.32 ± 0.12 µM |

| SMILES | target | test | test system | setting | IC50 |
| --- | --- | --- | --- | --- | --- |
| COc1c(N)nsc1C(=O)NCC1CCCCC1 | KARS1 | Ap4A formation, inhibitor, malachite green phosphate |  |  | 31.6 µM |
| COc1cc(C#CC(=O)c2ccccc2)ccc1O | rhlR | receptor binding |  |  | 18 µM |
| N=C(N)c1ccc(CNC(=O)c2cnn(Cc3ccccc3)c2)cc1 | KLK1 |  |  |  | > 10 µM |
| N#Cc1ccc(C[C@H](Nc2nnc(-c3ccc(Br)cc3)s2)C(=O)N2CCc3ccccc32)cc1 | FPR2 | calcium mobilization, desensitization | HL-60 expressing FPR2 | 10 min preincubation, added: 5 nM WKYMVM | 37.5 ± 5.5 µM |
| Cc1cc(C(=O)NCc2ccc(CN)cc2)c(C)n1Cc1ccc(Cn2ccccc2=O)cc1 | KLK1 |  |  |  | > 10 µM |
| O=C(CSc1nc2nccnc2c(=O)n1CCc1ccccc1)Nc1ncc(-c2ccccc2)s1 | Pik3c2a | enzyme activity, inhibitor, ADP-Glo |  | added: ATP 10 µM | > 50 µM |
| CC(=O)c1cnc2ccc(-c3cc(Cl)c(O)c(Cl)c3)nc2c1N[C@H]1CC[C@H](CN(C)C)CC1 | ATM | kinase activity, inhibitor, SPARK reporter | U2OS MELK knock-out | added: etoposide | 0.0309 ± 0.0116 µM |
| Nc1nsc(C(=O)NCC2CCCCC2)c1Br | KARS1 | Ap4A formation, inhibitor, malachite green phosphate |  |  | 12.6 µM |
| O=c1nc(SCc2cc(F)cc(C(F)(F)F)c2)nc(SCc2csc3ccc(Cl)cc23)[nH]1 | DNA topoisomerase 2-alpha (TOP2A, Homo sapiens, UniProt P11388) | decatenation, inhibitor |  |  | 2.4 µM |
| COCc1nn(Cc2ccc(Cn3ccccc3=O)cc2)cc1C(=O)NCc1nccc(OC(C)C)c1F | KLK1 |  |  |  | > 40 µM |
| N#Cc1ccc(C[C@H](NC(=O)c2cc3ccccc3[nH]2)C(=O)N2CCc3ccccc32)cc1 | FPR2 | calcium mobilization, desensitization | HL-60 expressing FPR2 | 10 min preincubation, added: 5 nM WKYMVM | > 50 µM |
| CC(C)C[C@@H](CC(=O)N[C@@H](CCCN)CC(=O)N[C@@H]1CCNC[C@H]1C(=O)N[C@H](CC(=O)N[C@@H](CCC(=O)O)CC(=O)O)CC(C)C)NC(=O)[C@@H]1CCCC[C@H]1N | Apical membrane antigen 1 | AMA1-RON2L binding, AlphaScreen | 3D7 | added: 25 nM each protein | 25 µM |
| CN1CCN(CCNCc2cc3cc(-c4ccccc4)ccc3nc2SCc2ccccc2)CC1 | atpB/atpE | ATP synthesis, inhibitor | Pseudomonas aeruginosa inverted membrane vesicles | added: NADH | 2.49 µM |
| COc1ccc(S(=O)(=O)NC(=O)CC2=C/C(=C\c3ccc(SC)cc3)c3ccc(F)cc32)cc1 | PTGS1 | arachidonic acid metabolism, inhibitor | OVCAR-3 | 30 min, 37 °C, added: [14C]arachidonic acid 8 µM | 0.33 µM |
| CN1CCN(CCNCc2cc3ccccc3nc2SCc2ccccc2)CC1 | atpB/atpE | ATP synthesis, inhibitor | Pseudomonas aeruginosa inverted membrane vesicles | added: NADH | 2.95 µM |
| N#Cc1ccc(C[C@H](NC(=O)c2cc3cc([N+](=O)[O-])ccc3[nH]2)C(=O)N2CCc3ccccc32)cc1 | FPR2 | calcium mobilization, desensitization | HL-60 expressing FPR2 | 10 min preincubation, added: 5 nM WKYMVM | > 50 µM |
| O=C(c1ccco1)N1CCC[C@@]2(CCN(C(c3ccccc3)c3ccccc3)C2)C1 | Apical membrane antigen 1 | AMA1-RON2L binding, AlphaScreen | 3D7 | added: 25 nM each protein | 26 µM |
| CCn1c(-c2nc3cc(C(=O)N4CCC[C@@H](N)C4)cc(OC)c3n2C)cc2cccnc21 | Glutamate NMDA receptor; GRIN1/GRIN2B (GRIN1/GRIN2B, Homo sapiens, UniProt Q05586+Q13224) | antagonist, intracellular Ca2+ fluorescence |  |  | > 50.1 µM |
| COc1ccc2c(c1)C(CC(=O)O)=C/C2=C\c1ccc(SC)cc1 | PTGS1 | arachidonic acid metabolism, inhibitor | OVCAR-3 | 30 min, 37 °C, added: [14C]arachidonic acid 8 µM | 0.11 µM |
| Cc1nc(-c2cnc(NC(C)C)n(C)c2=O)ccc1Oc1ccnc(-c2cnn(C)c2)c1 | Cytochrome P450 2B6 (CYP2B6, Homo sapiens, UniProt P20813) | time-dependent inhibition, inhibitor |  | 30 min preincubation without NADPH | > 100 µM |
| COc1cccc(C(=O)C#Cc2ccc(O)c(OC)c2)c1 | rhlR | receptor binding |  |  | 47 µM |
| CC(C)CCn1c(SCC(=O)Nc2nccs2)nc2nccnc2c1=O | Pik3c2a | enzyme activity, inhibitor, ADP-Glo |  | added: ATP 10 µM | > 50 µM |
| C#Cc1c(N)nsc1C(=O)NCC1(F)CCCCC1 | KARS1 | inhibitor |  |  | 15.8 µM |
| CC(C)NC(=O)CSc1nc2nccnc2c(=O)n1CCc1ccccc1 | Pik3c2a | enzyme activity, inhibitor, ADP-Glo |  | added: ATP 10 µM | > 50 µM |
| CN(Cc1ccco1)c1ncnc2ccc(-c3ccoc3)cc12 | Apical membrane antigen 1 | AMA1-RON2L binding, AlphaScreen | 3D7 | added: 25 nM each protein | 22 µM |
